Measurements of several laboratories.
Numbered parts are unrelated; each lists some results of a single study. Changes are numbered by the printed parent chain.

Study 1 — technique: protein-binding microarray; molecule type: double-stranded DNA, one strand shown; matrix: in vitro; concentration: not given; reading: higher = stronger binding
Target: Transcription factor Sp1 (SP1, Homo sapiens, UniProt P08047, residues 1-785, full length assumed)
Chain of UniProt P08047 (whole entry, looked up): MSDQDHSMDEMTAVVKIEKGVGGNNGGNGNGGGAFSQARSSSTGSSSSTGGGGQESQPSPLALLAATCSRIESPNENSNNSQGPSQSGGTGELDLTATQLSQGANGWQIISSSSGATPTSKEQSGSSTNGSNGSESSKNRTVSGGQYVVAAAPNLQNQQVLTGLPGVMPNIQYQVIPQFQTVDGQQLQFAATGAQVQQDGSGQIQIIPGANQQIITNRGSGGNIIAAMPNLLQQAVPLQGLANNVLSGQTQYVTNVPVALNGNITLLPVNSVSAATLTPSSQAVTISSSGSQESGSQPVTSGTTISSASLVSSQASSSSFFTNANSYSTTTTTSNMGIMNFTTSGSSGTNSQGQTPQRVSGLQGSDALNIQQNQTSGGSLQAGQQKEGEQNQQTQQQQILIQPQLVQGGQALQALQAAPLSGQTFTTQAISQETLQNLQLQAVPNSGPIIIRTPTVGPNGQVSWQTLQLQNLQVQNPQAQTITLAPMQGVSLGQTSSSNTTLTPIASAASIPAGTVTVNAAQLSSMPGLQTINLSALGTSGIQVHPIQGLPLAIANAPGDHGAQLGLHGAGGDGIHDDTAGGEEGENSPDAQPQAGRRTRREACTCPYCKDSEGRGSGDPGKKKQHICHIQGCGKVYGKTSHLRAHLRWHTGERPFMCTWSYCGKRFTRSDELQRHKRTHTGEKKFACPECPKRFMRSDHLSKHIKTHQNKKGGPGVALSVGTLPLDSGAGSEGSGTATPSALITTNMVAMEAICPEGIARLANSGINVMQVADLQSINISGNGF
Setting: k-mer, scored over probes, only values ≥0.25
Strand | E-score
TAATGACA | 0.252
GTACTATA | 0.29
ATGGGGGC | 0.346
CCCACCAA | 0.273
ACCCATAT | 0.321
AGGGGCGA | 0.3
ACCCCGCC | 0.487
CGCCCTCC | 0.339
CCCGCCCC | 0.498
GTGTGTTA | 0.29
CCTATCAC | 0.266

Study 2 — technique: RNA Bind-n-Seq; molecule type: RNA; matrix: in vitro; concentration: 200 nM; setting: whole 134-nt RNA, ends assumed; added: 150 mM LiCl; reference: input library; reading: higher = stronger binding; each molecule: 7-deaza-guanosine replaces G
Target: Ras GTPase-activating protein-binding protein 1, full length (G3BP1, Homo sapiens, UniProt Q13283)
Chain of UniProt Q13283 (whole entry, looked up): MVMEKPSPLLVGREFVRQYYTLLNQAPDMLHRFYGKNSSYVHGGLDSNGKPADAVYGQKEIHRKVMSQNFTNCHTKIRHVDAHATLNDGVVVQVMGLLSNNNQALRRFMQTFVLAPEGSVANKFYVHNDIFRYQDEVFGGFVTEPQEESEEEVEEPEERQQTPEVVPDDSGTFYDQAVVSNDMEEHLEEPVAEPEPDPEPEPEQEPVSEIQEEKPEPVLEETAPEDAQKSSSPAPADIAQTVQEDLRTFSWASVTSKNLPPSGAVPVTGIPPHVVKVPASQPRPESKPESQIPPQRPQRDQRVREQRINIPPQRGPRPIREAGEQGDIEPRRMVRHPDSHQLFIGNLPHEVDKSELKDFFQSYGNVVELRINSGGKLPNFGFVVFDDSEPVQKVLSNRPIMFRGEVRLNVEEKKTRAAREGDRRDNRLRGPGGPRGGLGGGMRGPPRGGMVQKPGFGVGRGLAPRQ
Shared flanks, not repeated: GGGAGUUCUACAGUCCGACGAUC … UGGAAUUCUCGGGUGUCAAGG
Strand | log2 enrichment
UCAAGUCCUGUGCUACACAUCGUAUGUACCGAAUCGGAAAAAAAGGUGGAAAGGAAAGUAUUAUGUUACGCCGUUCGGAUCUGCACUUCC | -0.559
UCCUCAAGUCCUGUGCUACACAUCGUAUGUACCGAAUCGGUUGGUUGGUUGGAAAGUAUUAUGUUACGCCGUUCGGAUCUGCACUUCCAG | 1.15
AGUCCUGUGCUACACAUCGUAUGUACCGAAUCGGGUUUUGGGGUUUUGGGGUUUUGGGAAAGUAUUAUGUUACGCCGUUCGGAUCUGCAC | 0.263
UGGGAGGUGGAUUUUGUUUAUUUUUUUAGAUCAUUUCCAGGGGUGGGAAUUUUUUUUUAAUAUGUGUCAUGAAUAAAGUUGUUUUUGAAA | -0.716
AGUCCUGUGCUACACAUCGUAUGUACCGAAUCGGGGCCCCGGGCCCCGGCCCCGGGGAAAGUAUUAUGUUACGCCGUUCGGAUCUGCACU | -1.79
GUCCUGUGCUACACAUCGUAUGUACCGAAUCGGAAAAAGGGAAAAAGGGGAAAAAGGGGAAAGUAUUAUGUUACGCCGUUCGGAUCUGCA | 0.084
UGUGCUACACAUCGUAUGUACCGAAUCGGGAAAAAAAGGGGAAAAAAAGGGGAAAAAAAGGGGAAAGUAUUAUGUUACGCCGUUCGGAUC | 0.671
CUCAAGUCCUGUGCUACACAUCGUAUGUACCGAAUCGGGCGGGGCGGGCGGGGAAAGUAUUAUGUUACGCCGUUCGGAUCUGCACUUCCA | -0.0706
GCAGGAAGUAAAAACAAAUGGAAAUGCUUCGGAUAGUGAAAGGGGUGGGGGUUGCUAAGGAAAGGGUGGGAUGGGAGUGGGUAAAGAGUU | 0.527
AGUCCUGUGCUACACAUCGUAUGUACCGAAUCGGGCCCCGGGGCCCCGGCCCCGGGGAAAGUAUUAUGUUACGCCGUUCGGAUCUGCACU | -2.19
CCUGUGCUACACAUCGUAUGUACCGAAUCGGGGUUUGGGGUUUUUGGGGAAAAAAAGGGGAAAGUAUUAUGUUACGCCGUUCGGAUCUGC | 0.394

Study 3 — technique: protein binding microarray; molecule type: double-stranded DNA, one strand shown; matrix: in vitro; concentration: not given; reference: not given; reading: higher = stronger binding
Target: Histone acetyltransferase KAT6A, winged helix 2, GST fusion (KAT6A, Homo sapiens, UniProt Q92794, residues 85-181)
Setting: 8-mer, flanks averaged, mean of 2 arrays, mostly near background
Target sequence (chain): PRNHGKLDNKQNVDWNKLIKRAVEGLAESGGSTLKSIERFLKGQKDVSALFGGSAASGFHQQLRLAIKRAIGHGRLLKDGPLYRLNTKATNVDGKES
Strand | E-score
GTAGGGTA | -0.0702
ACATCAGT | -0.172
GGAGGTCA | 0.0311
AACCTGGC | 0.106
ACATTTCT | 0.0891
CTCGAGCA | 0.0543
ACCATTTG | 0.0302
ATACTATC | -0.0867
CTTATCTC | -0.0107
GAAACATC | 0.0472
CACGGTCG | -0.00384
GTCTCGAA | 0.108
GTGGTTTA | -0.149
CTATCACA | -0.025
AGTTGGGC | 0.13
CGGGATAG | -0.0827
CTCTGAAA | 0.00073
GGAGGCCC | 0.0163
ACCAATGG | -0.0227
TACTTAAA | -0.0669
ACATGCAC | -0.108
GAGATACC | 0.0105
GCCAGGCC | 0.083

Study 4 — technique: aptamer microarray, sandwich; molecule type: DNA with 2'F-ANA; matrix: in vitro; concentration: 200 nM; added: Cy3 exosite-II aptamer, 400 nM; reading: higher = stronger binding; strand: GGTTGGTGTGGTTGG
Target: Prothrombin, mature alpha-thrombin (F2, Homo sapiens, UniProt P00734)
Setting: whole 15-mer aptamer, many near background
Modification | mean fluorescence intensity
2'F-ANA at 1 2 3 7 10 15 | 72.6 a.u.
2'F-ANA at 1 2 8 9 10 12 14 15 | 48.6 a.u.
2'F-ANA at 1 2 4 5 7 8 10 15 | 59.7 a.u.
2'F-ANA at 3 4 5 9 12 13 15 | 115 a.u.
2'F-ANA at 4 7 9 10 11 12 | 114 a.u.
2'F-ANA at 4 9 13 14 15 | 72.6 a.u.
2'F-ANA at 2 3 5 6 9 10 13 | 49.3 a.u.
2'F-ANA at 7 9 10 11 14 | 112 a.u.
2'F-ANA at 2 3 4 8 9 10 11 12 13 14 | 172 a.u.
2'F-ANA at 4 7 12 | 731 a.u.
2'F-ANA at 3 4 5 6 14 15 | 231 a.u.
2'F-ANA at 1 2 3 4 5 7 9 10 11 13 14 15 | 48.7 a.u.
2'F-ANA at 1 3 5 7 8 11 12 13 14 | 68.5 a.u.
2'F-ANA at 1 2 4 5 6 7 8 12 15 | 118 a.u.
2'F-ANA at 2 4 6 10 11 13 15 | 66 a.u.
2'F-ANA at 2 6 7 9 11 14 | 117 a.u.
2'F-ANA at 2 6 7 8 9 10 13 14 15 | 121 a.u.
2'F-ANA at 2 5 6 7 10 14 | 47 a.u.
2'F-ANA at 2 3 9 10 11 | 363 a.u.
2'F-ANA at 3 4 8 9 10 11 12 13 14 | 171 a.u.
2'F-ANA at 2 6 7 11 14 | 128 a.u.
2'F-ANA at 2 4 5 6 7 10 12 13 | 49.7 a.u.
2'F-ANA at 2 3 6 8 11 12 | 894 a.u.

Study 5 — target: CCNB1, cyclin fold, Cln2 fusion (human); technique: yeast growth competition, sequencing; matrix: yeast; setting: weak parent motif; reference: not given; reading: higher = stronger binding
Starting sequence: HASPIN docking peptide (human); ASLRSVLFGLMNS
Change | normalised enrichment score
G9A | 0.0552
R4A | -0.637
S13A | -0.486
F8A | -0.204
S5A | 0.424
L3A | 0.123

Study 6 — technique: DHFR PCA, deep sequencing; matrix: yeast; added: (+)-ABA 0.11 µM; reference: wild-type fitted maximum; reading: higher = stronger binding
Target: ABI1, truncated, D143A, DHFR fusion (Arabidopsis thaliana)
Setting: methotrexate growth selection, single substitutions
Starting sequence: PYL1, truncated, DHFR fusion (Arabidopsis thaliana); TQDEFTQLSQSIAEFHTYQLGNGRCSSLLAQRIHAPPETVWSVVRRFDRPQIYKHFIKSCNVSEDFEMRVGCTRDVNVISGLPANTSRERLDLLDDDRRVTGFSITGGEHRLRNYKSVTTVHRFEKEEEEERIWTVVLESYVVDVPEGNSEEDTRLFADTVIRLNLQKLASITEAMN
Change | relative binding score
E67M | 0.306%
V78P | 0.244%
R24N | -1.07%
K54P | -0.397%
L138A | -6.99%
V145L | -9.56%
L91H | -4.61%
F66I | 0.183%
E89W | 8.7%
T120M | -5.81%
E131L | 34.3%
S63K | 33.9%
L112H | -0.79%

Study 7 — technique: RNA Bind-n-Seq; molecule type: RNA; matrix: in vitro; concentration: 20 nM; setting: 6-mer, flanks averaged, single round; added: 150 mM LiCl; reference: input library; reading: higher = stronger binding
Target: TAR DNA-binding protein 43, full length, His tag (TARDBP, Homo sapiens, UniProt Q13148, residues 1-414)
Strand | 6-mer enrichment (R)
CAUGGU | 0.998
UUGCAU | 0.994
GACAAC | 0.817
GUGCGG | 1.32
CGCACG | 0.88
CAGAGC | 0.897
CCAAGU | 0.909
ACUCUG | 0.86
UUGGUC | 0.985
GUGAGC | 1.12
UGUCCC | 1.09
CCGUAG | 0.883
UGCUGA | 0.953
CGGAAG | 0.947
CGUUAU | 0.954
UACAAA | 0.833
CAACGG | 0.821

Single results of other studies
Substance | target | test | test system | conditions | how to read | endpoint | value
PhoQ, residues 284 288 289 292 302 303 TLASMF | PhoP, residues 12 14 15 18 19 TPWLV (Escherichia coli, UniProt P23836) | Sort-seq, item: YFP reporter | E. coli | PhoQ-PhoP variant library, added: 10 µM Mg2+ | reference: high Mg2+ state, higher = stronger signaling | fold induction | 8.73
